Measured values gathered from unrelated publications.
Parts stem from different laboratories: compare values within a part only.

Study 1
Target: RING finger protein unkempt homolog, zinc fingers 1-6, SBP tag (UNK, Homo sapiens, UniProt Q9C0B0, residues 30-357)
UniProt Q9C0B0, sequence (30-357, looked up): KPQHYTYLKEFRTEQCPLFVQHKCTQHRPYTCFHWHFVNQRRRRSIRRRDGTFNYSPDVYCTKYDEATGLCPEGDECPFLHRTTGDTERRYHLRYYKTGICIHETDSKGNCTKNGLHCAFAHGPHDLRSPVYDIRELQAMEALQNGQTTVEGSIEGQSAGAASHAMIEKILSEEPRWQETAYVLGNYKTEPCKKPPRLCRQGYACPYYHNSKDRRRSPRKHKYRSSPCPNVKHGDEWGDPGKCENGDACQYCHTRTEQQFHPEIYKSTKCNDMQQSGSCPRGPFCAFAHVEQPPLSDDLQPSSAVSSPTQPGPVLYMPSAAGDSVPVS
Technique: RNA Bind-n-Seq
Form: RNA
Medium: in vitro
Concentration: 100 nM
Setting: RNA with constant flanks, ends assumed
Reference: input RNA pool
Direction: higher = stronger binding
Endpoint: bound/input enrichment
GGGAGUUCUACAGUCCGACGAUCCGUGCUUAUGCUCUUCUAUGAGAGAGAUGAAUUGGGGAGAAUUGUCUCCAUUUUACCGAUCCGUUUCUUUCUAAAUUAUGACCAAAAAUAUUUUGCUAUUUCUUUCUUUGUAUAUGGACACAACAGAGGAUUGAGCAUCA: 0.539 ratio
GGGAGUUCUACAGUCCGACGAUCGCUGUGCCGAGCCGGGCCCUGUUCUCCUCCGGAUGUUGCUUCUUGAUUUUUUUUUUUUUUCCGGGGUGGGUCAGGGUUGUGACACACCAGCCCAGGUGAGAGCUGCUGCGGGUCACCUCACAACAGAGGAUUGAGCAUCA: 0.443 ratio
GGGAGUUCUACAGUCCGACGAUCCAUUGUACCCUGCUGUAUAAUAAACAAUCUCCGACAUUUAUCAACUGUUGAUACAAAUGUCCGUCCCUAACCACUUUUUAUAUAUGUUUUAAAUUUUUGAAAUUCAAGUGUACCUGCCAUCAACAGAGGAUUGAGCAUCA: 0.795 ratio

Study 2
Target: Sal-like protein 4, full length isoform B (SALL4, Homo sapiens, UniProt Q9UJQ4-2, residues 1-616)
Technique: universal PBM
Form: double-stranded DNA, one strand shown
Medium: in vitro
Concentration: not given
Setting: 8-mer, flanks averaged, mean of replicates
Direction: higher = stronger binding
Endpoint: E-score
GCGGCCAC: -0.411
AGGAGAGG: -0.12
CAGCTATA: 0.147
ATCCTCCG: -0.238
AAGAACCA: -0.0158
CGGACTAG: -0.175
GGATCGAA: -0.105
GGCAATCA: 0.0139
CAAGTCTC: -0.161
ACGACACC: -0.149
TCCCCAAA: 0.154
ACCATCAG: -0.0932
AATGCGTC: -0.0591
TCTTGGCA: -0.0921
CAACCAAA: -0.0186
CCGCCAAA: -0.0466
CGATTTTA: 0.157
AAGGAGGT: 0.00446
GGTCCATA: 0.136

Study 3
Target: Prothrombin, mature alpha-thrombin (F2, Homo sapiens, UniProt P00734)
Technique: aptamer microarray, sandwich
Form: DNA with 2'F-ANA
Medium: in vitro
Concentration: 200 nM
Setting: whole 15-mer aptamer, many near background
Together with: Cy3 exosite-II aptamer, 400 nM
Direction: higher = stronger binding
Endpoint: mean fluorescence intensity
Sequence: GGTTGGTGTGGTTGG
2'F-ANA at 1 2 6 7 8 9 11 12 14: 75.3 a.u.
2'F-ANA at 3 7 14 15: 620 a.u.
2'F-ANA at 2 4 5 8 13 15: 53.3 a.u.
2'F-ANA at 2 4 5 6 15: 66.4 a.u.
2'F-ANA at 1 2 3 7 9 10 11: 67.4 a.u.
2'F-ANA at 1 2 3 6 8 11 12: 358 a.u.
2'F-ANA at 4 8 11 13: 225 a.u.
2'F-ANA at 2 3 4 5 7 9 11 12 15: 253 a.u.
2'F-ANA at 2 3 4 7 8 11: 699 a.u.
2'F-ANA at 2 3 5 6 7 9 11 12 15: 121 a.u.
2'F-ANA at 1 2 3 7 8 9 10 12 13 14: 56.4 a.u.
2'F-ANA at 4 5 7 10 14 15: 67.3 a.u.
2'F-ANA at 4 5 7 8 14 15: 47.6 a.u.
2'F-ANA at 3 6 7 9 11 12 15: 866 a.u.
2'F-ANA at 3 5 6 7 8 9 10 12 14: 50.5 a.u.
2'F-ANA at 4 7 8 9 11 12 14 15: 122 a.u.
2'F-ANA at 1 3 4 5 6 9 10 11 12 13 14 15: 47.8 a.u.
2'F-ANA at 1 2 6 8 9 11 13 14 15: 50.7 a.u.
2'F-ANA at 1 2 3 4 6 8 9 10 11 13 14: 51 a.u.

Study 4
Target: RNA binding protein fox-1 homolog 2, RRM domain, GST-SBP tag (RBFOX2, Homo sapiens, UniProt O43251-10, residues 100-194)
Technique: RNA Bind-n-Seq
Form: RNA
Medium: in vitro
Concentration: 365 nM
Setting: natural RNA segment, single round, ends assumed
Reference: no-protein control
Direction: higher = stronger binding
Endpoint: RBNS enrichment (R)
Shared flanks, not repeated: GGGAGUUCUACAGUCCGACGAUC … UGGAAUUCUCGGGUGCCAA
Construct (chain): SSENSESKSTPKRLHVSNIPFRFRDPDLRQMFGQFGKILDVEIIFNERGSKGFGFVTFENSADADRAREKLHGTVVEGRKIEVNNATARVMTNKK
CUACCAUUUAGCGGAGUUAUCUUUGAAAAGACAUCAACAUCCCUGUGCAUUUGUCAGUCUGGUAGAGUGGACUGGAGGUUGUCAAGUCUGCAUUGUAGUCUGAGUGUGCC: 0.704
AACUCCCCUGGCACUCAGCUCUGCCUCUAGUUCAGCCGCCCAGCCACUGAGAGUCAGGGCAUGGUGCUGCGGGGGAGGGCUCUUUUCUAUAUUUAUUUGAUAGCGAUAAG: 0.193
GCUUGUAGAGGGACAUUCCCUCCUUCCCAGUUUUAACUGGUGGACCACAGUGGGGGGAAAAACAUUCAAGCGAUAUAAAGACACUUGGGCUCUUUGCAGAUGCCUAUACU: 0.593
AACAGUAAAGGCCAUGUGAAGAGAAUUAUUACAUCUUUAUUAACCUCAGCAUUUACUUUGUUUCUUUUGCUUAGGAAAUUGCUCAUAAUCUGGUUAUAAUUUUGGUCCAA: 0.357
UGUAGAACAUCCGCCAUGCCGUCCCAGCUGGCGGAGGGGGAGCUGCCCACCUAGCUGGGUUUGGACCUGGAGUGCAGUGGCGUGAACCCUGGUCAGCACAGUCCCCAGCG: 0.372
UGAGGCGACAGUGAGCUAGGAUCGCACCACUGCACUCCAGCCUGAGUGACAGAGCAAGACCCUGUCUCUAAAAAAAAUUAAAAUGAAAGACCAGGUGCUGGGAUUAAGGA: 9.14
UAUUAUGCAAAAUUUAGAAGAAAAGUUAUUGGCAUGGUUGUUGCAUAUAGUUAAACUGAGAGUAAUUCAUCUGUGAAUCUGCUUUAAUUACCUGGUGAGUAACUUAGAAA: 2.65
CUUUGUCUCAUCCUUCAUUCUGAAUAAGAUGGCAGUGUUCUCCUCUGGGGCCUGAUCCACCUCUACACCAGCCCAGGAAGCCCCAUCUGUGCCUGCCCUCAGGUGGUCCA: 0.347
